Experimental data pooled from the literature.
± marks the error that the study gave.

| Compound | assay | system | setting | scale | Cmax |
| --- | --- | --- | --- | --- | --- |
| Cc1nc(-c2ccc(OCC(C)C)c(C#N)c2)sc1C(=O)O | – | human, plasma | oral, 20 mg once daily, together with: verinurad 5 mg | – | 538 ng/mL |
| N#CCNC(=O)c1ccc(-c2ccnc(Nc3ccc(N4CCOCC4)cc3)n2)cc1 | – | healthy human volunteers, plasma | oral, 200 mg single dose, day 1, fasted, given alone | – | 528 ng/mL |
| C=CC(=O)N1CCC[C@@H](n2c(=O)n(-c3ccc(Oc4ccccc4)cc3)c3c(N)nccc32)C1 | – | human, fed, plasma | oral, 60 mg, geometric mean | – | 11.5 ng/mL |
| Cn1nc2c(=O)n(C3CC3)cnc2c1[C@](O)(c1cnc(C(F)(F)F)c(Cl)c1)C(F)(F)F | – | humanized SCID mice, blood | 30 mg/kg once daily, 6 days, infected | – | 14.5 µM |
| COC(=O)N[C@@H](C)CNc1nccc(-c2cn(C(C)C)nc2-c2cc(Cl)cc(NS(C)(=O)=O)c2F)n1 | – | human, plasma | oral, 50 mg, single dose alone | geometric mean | 554 ng/mL |
| Cc1nc2ccc(F)cc2n1-c1nc(N)c(F)c(Nc2ccc(C(F)(F)F)cc2)n1 | – | human patients, plasma | oral, 200 mg twice weekly, cycles 1 and 2 pooled | – | 1260 ng/mL |
| Nc1ccn([C@@H]2O[C@H](CO)[C@@H](O)C2(F)F)c(=O)n1 | – | human, plasma | intravenous, dose not given, mean, after paricalcitol | – | 16000 ng/mL |
| CCCOc1ccc(NC(=O)CN2CCN(C)CC2)cc1-c1nc(CC)c(CC)c(=O)[nH]1 | – | human, fasting, plasma | oral, 10 mg, together with: alcohol 0.5 g/kg | – | 63.7 ± 21.5 ng/mL |
| C=CC(=O)NC1CCN(c2ncc3ncnc(Nc4ccc(Oc5ccc6c(c5)ncn6C)c(C)c4)c3n2)CC1 | – | human, male, plasma | oral, 240 mg, fasted, adjusted geometric mean | – | 3.7 µM |
| Cc1noc(C)c1-c1cc(C(O)(c2ccccn2)c2ccccn2)c2nc(C3CC3)[nH]c2c1 | – | human patients, plasma | oral, 3 mg, cycle 1 day 8, monotherapy | – | 296 ng/mL |
| O=C(/C=C/CN1CCCCC1)Nc1cc2c(Nc3ccc(F)c(Cl)c3)ncnc2cc1O | – | human, plasma | oral, 30 mg | – | 9.94 ng/mL |
| CCc1cc2c(cc1N1CCC(N3CCOCC3)CC1)C(C)(C)c1[nH]c3cc(C#N)ccc3c1C2=O | LC-MS | human, plasma | oral, 600 mg twice daily, cycle 1 day 15 | – | 1210 ng/mL |
| Cn1nnc2c(C(N)=O)ncn2c1=O | – | human patients, plasma | oral, 30 mg/m2, day 5, dose level DL4, median, together with: talazoparib 600 µg/m2 | – | 1610 ng/mL |
| COc1cc2ncnc(Nc3ccc(F)c(Cl)c3)c2cc1NC(=O)/C=C/CN1CCCCC1 | – | human, normal hepatic function (NCI), plasma | single dose, geometric mean, total drug | – | 11.8 ng/mL |
| C[C@H](CCC(=O)NCC(=O)O)[C@H]1CC[C@H]2[C@@H]3[C@H](O)C[C@@H]4C[C@H](O[C@@H]5O[C@H](C(=O)O)[C@@H](O)[C@H](O)[C@H]5O)CC[C@]4(C)[C@H]3CC[C@]12C | – | human, plasma | concentration not given, endogenous baseline diurnal | – | 0.079 ± 0.0191 µM |
| CC(=O)O.NC(=O)c1cnc(N[C@@H]2CCCC[C@@H]2N)nc1Nc1cccc(-n2nccn2)c1 | – | human, plasma | oral, 66 mg once daily | – | 119 ng/mL |
| Cn1c(=O)oc2ccc(-c3ccc(C[C@@H](C#N)NC(=O)[C@@H]4CNCCCO4)cc3)cc21 | – | human, moderate renal impairment, plasma | oral, 25 mg single dose, geometric least squares mean | – | 183 ng/mL |
| CCN1CCN(Cc2ccc(Nc3ncc(F)c(-c4cc(F)c5nc(C)n(C(C)C)c5c4)n3)nc2)CC1 | – | fasted healthy human subjects, plasma | oral, 200 mg, capsule | – | 102 ng/mL |
| COC(=O)c1ccc2c(c1)NC(=O)/C2=C(\Nc1ccc(N(C)C(=O)CN2CCN(C)CC2)cc1)c1ccccc1 | – | healthy human | oral, 150 mg single, alone | – | 19.8 ng/mL |
| NC1(C(=O)N[C@@H](CCO)c2ccc(Cl)cc2)CCN(c2ncnc3[nH]ccc23)CC1 | – | human, plasma | 640 mg twice daily, day 4, 4 days on, 3 days off | – | 2720 ng/mL |

Some of these lines once more:
| Compound | assay | system | setting | scale | Cmax |
| --- | --- | --- | --- | --- | --- |
| O=C(/C=C/CN1CCCCC1)Nc1cc2c(Nc3ccc(F)c(Cl)c3)ncnc2cc1O | – | human, plasma | oral, 30 mg | – | 9.94 ng/mL |
| CCc1cc2c(cc1N1CCC(N3CCOCC3)CC1)C(C)(C)c1[nH]c3cc(C#N)ccc3c1C2=O | LC-MS | human, plasma | oral, 600 mg twice daily, cycle 1 day 15 | – | 1210 ng/mL |
| Cn1nnc2c(C(N)=O)ncn2c1=O | – | human patients, plasma | oral, 30 mg/m2, day 5, dose level DL4, median, together with: talazoparib 600 µg/m2 | – | 1610 ng/mL |
